# Assay results collected from several papers.
# Compare with care: the assays were run in different laboratories. ± gives the spread as reported.
# UniProt P28907, sequence (whole entry, looked up): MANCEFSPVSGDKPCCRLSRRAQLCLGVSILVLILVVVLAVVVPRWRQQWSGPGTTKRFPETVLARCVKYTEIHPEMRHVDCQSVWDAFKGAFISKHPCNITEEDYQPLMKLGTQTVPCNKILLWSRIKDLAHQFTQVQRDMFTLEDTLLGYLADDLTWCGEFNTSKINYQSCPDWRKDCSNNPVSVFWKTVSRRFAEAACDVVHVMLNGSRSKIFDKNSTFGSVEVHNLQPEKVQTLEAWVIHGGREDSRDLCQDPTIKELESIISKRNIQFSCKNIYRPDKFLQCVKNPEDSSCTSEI
# UniProt Q99436, sequence (whole entry, looked up): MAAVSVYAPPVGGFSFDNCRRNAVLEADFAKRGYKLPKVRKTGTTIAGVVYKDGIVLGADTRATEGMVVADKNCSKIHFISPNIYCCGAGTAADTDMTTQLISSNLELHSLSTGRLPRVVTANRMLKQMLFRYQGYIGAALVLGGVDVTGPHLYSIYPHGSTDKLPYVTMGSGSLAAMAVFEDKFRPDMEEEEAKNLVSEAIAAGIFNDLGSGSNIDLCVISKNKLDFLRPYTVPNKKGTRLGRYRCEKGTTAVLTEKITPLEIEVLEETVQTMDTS
# UniProt Q6W5P4, sequence (whole entry, looked up): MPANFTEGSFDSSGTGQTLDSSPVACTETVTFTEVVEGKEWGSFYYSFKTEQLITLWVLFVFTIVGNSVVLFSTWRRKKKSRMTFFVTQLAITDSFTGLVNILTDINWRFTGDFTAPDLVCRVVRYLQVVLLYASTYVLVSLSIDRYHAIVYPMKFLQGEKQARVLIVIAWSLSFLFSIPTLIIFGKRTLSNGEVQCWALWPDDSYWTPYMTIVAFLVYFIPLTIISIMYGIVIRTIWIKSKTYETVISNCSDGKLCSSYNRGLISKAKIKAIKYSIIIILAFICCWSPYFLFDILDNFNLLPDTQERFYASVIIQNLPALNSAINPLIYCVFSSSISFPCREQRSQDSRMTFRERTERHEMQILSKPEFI
# UniProt Q96SW2, sequence (whole entry, looked up): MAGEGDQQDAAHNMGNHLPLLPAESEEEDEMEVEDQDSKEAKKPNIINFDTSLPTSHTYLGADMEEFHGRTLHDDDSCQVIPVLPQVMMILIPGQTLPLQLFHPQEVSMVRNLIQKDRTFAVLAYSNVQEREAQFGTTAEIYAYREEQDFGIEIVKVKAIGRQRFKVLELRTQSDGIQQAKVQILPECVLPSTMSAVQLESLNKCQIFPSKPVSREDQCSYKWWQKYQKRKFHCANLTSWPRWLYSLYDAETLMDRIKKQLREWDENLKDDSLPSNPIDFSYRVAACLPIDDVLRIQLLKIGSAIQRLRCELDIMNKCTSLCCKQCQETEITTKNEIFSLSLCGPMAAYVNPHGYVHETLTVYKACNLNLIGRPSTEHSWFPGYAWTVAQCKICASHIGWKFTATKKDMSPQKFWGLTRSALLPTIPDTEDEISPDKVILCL
# UniProt Q920B6, sequence (whole entry, unmodified, looked up): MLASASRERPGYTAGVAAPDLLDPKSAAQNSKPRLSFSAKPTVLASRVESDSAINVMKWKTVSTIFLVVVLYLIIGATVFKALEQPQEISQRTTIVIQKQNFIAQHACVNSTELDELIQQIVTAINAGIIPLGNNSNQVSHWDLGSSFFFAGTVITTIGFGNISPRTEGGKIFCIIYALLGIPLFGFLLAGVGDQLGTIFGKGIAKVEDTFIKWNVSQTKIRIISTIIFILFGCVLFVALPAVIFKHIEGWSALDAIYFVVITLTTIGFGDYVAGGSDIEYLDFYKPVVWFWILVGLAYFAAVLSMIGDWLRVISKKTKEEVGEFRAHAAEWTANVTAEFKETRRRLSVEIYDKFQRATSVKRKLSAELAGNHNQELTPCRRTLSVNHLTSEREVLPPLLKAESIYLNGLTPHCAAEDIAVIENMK
# UniProt P53341, sequence (whole entry, looked up): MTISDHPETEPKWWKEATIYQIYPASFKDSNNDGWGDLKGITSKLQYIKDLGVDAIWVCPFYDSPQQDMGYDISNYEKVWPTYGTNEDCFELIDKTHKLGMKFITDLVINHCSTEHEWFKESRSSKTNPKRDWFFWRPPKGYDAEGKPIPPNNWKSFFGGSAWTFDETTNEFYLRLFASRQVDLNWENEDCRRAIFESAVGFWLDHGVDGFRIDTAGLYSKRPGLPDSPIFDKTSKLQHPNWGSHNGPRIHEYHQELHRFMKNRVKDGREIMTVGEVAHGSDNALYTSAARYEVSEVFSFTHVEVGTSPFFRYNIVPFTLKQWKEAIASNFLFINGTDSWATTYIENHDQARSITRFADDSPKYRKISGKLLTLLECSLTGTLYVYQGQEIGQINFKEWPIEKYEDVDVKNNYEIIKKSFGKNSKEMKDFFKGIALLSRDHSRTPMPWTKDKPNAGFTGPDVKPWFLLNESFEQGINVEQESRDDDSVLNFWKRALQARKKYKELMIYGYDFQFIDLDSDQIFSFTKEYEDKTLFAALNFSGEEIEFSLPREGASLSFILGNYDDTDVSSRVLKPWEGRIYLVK
# UniProt Q9NZC7, sequence (whole entry, unmodified, looked up): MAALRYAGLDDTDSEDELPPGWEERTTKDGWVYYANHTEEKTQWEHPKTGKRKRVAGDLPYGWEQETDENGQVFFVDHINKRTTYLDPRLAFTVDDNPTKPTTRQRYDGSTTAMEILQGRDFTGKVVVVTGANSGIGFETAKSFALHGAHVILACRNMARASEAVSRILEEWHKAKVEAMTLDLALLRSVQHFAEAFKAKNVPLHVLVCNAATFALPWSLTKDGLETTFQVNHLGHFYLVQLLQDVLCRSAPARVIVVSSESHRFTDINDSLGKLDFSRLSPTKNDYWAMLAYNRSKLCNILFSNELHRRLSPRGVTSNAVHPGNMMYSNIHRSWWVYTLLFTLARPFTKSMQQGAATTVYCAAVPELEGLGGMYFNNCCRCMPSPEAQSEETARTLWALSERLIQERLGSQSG
# UniProt P16050, sequence (whole entry, looked up): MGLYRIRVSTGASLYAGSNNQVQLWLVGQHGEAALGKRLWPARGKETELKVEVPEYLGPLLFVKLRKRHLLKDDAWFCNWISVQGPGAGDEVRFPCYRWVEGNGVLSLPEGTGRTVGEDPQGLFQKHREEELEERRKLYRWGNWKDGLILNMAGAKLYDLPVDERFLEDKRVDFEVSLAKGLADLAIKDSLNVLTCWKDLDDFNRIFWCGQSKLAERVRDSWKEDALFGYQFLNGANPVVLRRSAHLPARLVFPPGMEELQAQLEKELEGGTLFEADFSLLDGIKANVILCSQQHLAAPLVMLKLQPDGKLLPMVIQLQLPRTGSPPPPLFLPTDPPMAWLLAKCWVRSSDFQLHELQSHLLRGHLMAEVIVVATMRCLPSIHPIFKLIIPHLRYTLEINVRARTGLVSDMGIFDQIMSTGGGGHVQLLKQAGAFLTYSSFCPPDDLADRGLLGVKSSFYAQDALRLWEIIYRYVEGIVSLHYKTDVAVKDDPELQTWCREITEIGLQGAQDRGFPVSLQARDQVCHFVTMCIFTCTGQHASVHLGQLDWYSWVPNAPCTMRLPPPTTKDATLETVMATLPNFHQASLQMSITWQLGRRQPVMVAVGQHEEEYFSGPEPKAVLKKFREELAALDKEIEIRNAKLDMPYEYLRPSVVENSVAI
# UniProt P48729, sequence (whole entry, looked up): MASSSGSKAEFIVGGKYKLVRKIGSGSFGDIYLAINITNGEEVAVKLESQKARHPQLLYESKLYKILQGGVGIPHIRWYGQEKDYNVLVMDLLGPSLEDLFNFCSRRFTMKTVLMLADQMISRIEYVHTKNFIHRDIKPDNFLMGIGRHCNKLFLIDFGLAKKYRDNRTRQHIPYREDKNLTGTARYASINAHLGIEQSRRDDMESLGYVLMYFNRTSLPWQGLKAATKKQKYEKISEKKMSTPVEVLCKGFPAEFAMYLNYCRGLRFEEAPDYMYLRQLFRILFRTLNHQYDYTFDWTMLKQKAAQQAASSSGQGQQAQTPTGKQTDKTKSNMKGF
SMILES,target,test,test system,setting,scale,quantity,value
CCCCC[N+](CCCCC)(CCCCC)CCCCC,"Potassium channel subfamily K member 2 (Kcnk2, Rattus norvegicus, UniProt Q920B6, L189C/T157C)","ion current, blocker, inside-out patch clamp",,"concentration not given, T157C-L189C double mutant",baseline: wild type,fold reduction in sensitivity,~500 fold
CC(C)C[C@H](NC(=O)[C@@H](NC(=O)[C@@H](NC(=O)CN)[C@@H](C)O)C(C)C)C(=O)N1CCC[C@H]1C(=O)N1CCC[C@H]1C(=O)N1CCC[C@H]1C(=O)N1CCC[C@H]1C(=O)N[C@@H](Cc1ccc(O)cc1)C(=O)N[C@@H](CCCNC(=N)N)C(=O)N[C@@H](Cc1c[nH]cn1)C(=O)N[C@@H](CCCNC(=N)N)C(=O)N[C@@H](CC(N)=O)C(=O)O,"WW domain-containing oxidoreductase, WW1-WW2 tandem domains (WWOX, Homo sapiens, UniProt Q9NZC7)","binding, isothermal titration calorimetry",,"pH 7.8, 20 °C, tandem WW1-WW2 domain",,TΔS,6.1 ± 0.5 kcal/mol
C=C(NC(=O)C(=C)NC(=O)c1csc(C2=NC3c4csc(n4)C4NC(=O)c5csc(n5)C(C(C)(O)C(C)O)NC(=O)C5CSC(=N5)C(=CC)NC(=O)C(C(C)O)NC(=O)c5csc(n5)C3(CC2)NC(=O)C(CCC(N)=O)NC(=O)C(=C)NC(=O)C(C)NC(=O)C(C(C)CC)NC2C=Cc3c(C(C)O)cc(nc3C2O)C(=O)OC4C)n1)C(N)=O (centres unmarked),"Proteasome subunit beta type-7, in 20S proteasome (PSMB7, Homo sapiens, UniProt Q99436)","trypsin-like activity, inhibitor",,with: Boc-Leu-Arg-Arg-AMC,baseline: thiostrepton A,fold loss of potency,≥ 11 fold
CSCC[C@H](NC(=O)[C@H](CC(C)C)NC(=O)[C@H](CCCCN(C)C)NC(=O)[C@H](CCCCNC(C)=O)NC(=O)[C@H](Cc1c[nH]cn1)NC(=O)[C@H](CCCNC(=N)N)NC(=O)[C@H](CO)NC(=O)[C@@H](N)[C@@H](C)O)C(=O)N[C@@H](Cc1ccccc1)C(=O)N[C@@H](CCCCN)C(=O)O,human 53BP1 tandem Tudor domain D1521Y,,,concentration not given,baseline: wild type over mutant,binding affinity decrease,~9 fold
C=C1C(=O)O[C@@H]2[C@H]3C(CO)=CC(=O)C3=C(C)C[C@H](O)[C@@H]12,"Alpha-glucosidase MAL12 (MAL12, Saccharomyces cerevisiae S288c, UniProt P53341)","enzyme activity, inhibitor",,65.22 µM,,Vmax,0.013 mM/min
O=C1NC(=O)C(=Cc2ccc(-c3cccc(C(F)(F)F)c3)o2)S1,"ADP-ribosyl cyclase/cyclic ADP-ribose hydrolase 1 (CD38, Homo sapiens, UniProt P28907)","hydrolase activity, fluorometric",,"50 µM, with: ε-NAD+ substrate",baseline: untreated,remaining activity,80.9 ± 4.4%
N=C(N)NCCC[C@H](NC(=O)[C@H](Cc1ccccc1)NC(=O)[C@@H](N)CO)C(=O)N[C@@H](CC(N)=O)C(N)=O,"Neuropeptide S receptor (NPSR1, Homo sapiens, UniProt Q6W5P4)","calcium mobilization, agonist",CHO-Galpha16,unit not given,baseline: maximal assay window,maximal response,1
CC(C)[C@H](NC(=O)[C@H](CCCCN)NC(=O)[C@H](C)NC(=O)[C@H](CCCCN)NC(=O)CNC(=O)[C@H](CS)NC(=O)[C@@H](NC(=O)[C@H](CCCCN)NC(=O)[C@@H](N)CO)[C@@H](C)O)C(=O)N[C@H](C(=O)NCC(=O)N[C@@H](CCCNC(=N)N)C(=O)N[C@@H](Cc1c[nH]c2ccccc12)C(=O)N[C@@H](CCCCN)C(=O)O)[C@@H](C)O,"Actin, alpha skeletal muscle (ACTA1, Oryctolagus cuniculus, UniProt P68135)","binding, SPR",,pH 7,,koff,0.0169 s⁻¹
CN1CCN(CC(=O)N2N=C3/C(=C/c4ccccc4)CCCC3C2c2ccccc2)CC1 (mixture of isomers),"Polyunsaturated fatty acid lipoxygenase ALOX15 (ALOX15, Homo sapiens, UniProt P16050)","enzyme activity, activator",,pH 7.5,,Emax,242%
CC(=O)NCCN(CCC(=O)NCCN(CCC(=O)NCCN(CCC(=O)NCCC(N)=O)C(=O)[C@@H](N)CCCNC(=N)N)C(=O)[C@@H](N)Cc1ccccc1)C(=O)[C@@H](N)Cc1ccccc1,HIV-1 TAR RNA,,,concentration not given,,heat capacity change ΔCp,-1.54 ± 0.25 kJ/mol/K
O=C1CC[C@H](N2Cc3cc(-c4ccn5nccc5n4)ccc3C2=O)C(=O)N1,"Cereblon/Casein kinase I alpha (CSNK1A1/CRBN, Homo sapiens, UniProt P48729+Q96SW2)","protein level, degrader, luciferase",MOLT-4,,,Dmax,79%

# Excerpt of the above:
SMILES,target,test,test system,setting,scale,quantity,value
C=C(NC(=O)C(=C)NC(=O)c1csc(C2=NC3c4csc(n4)C4NC(=O)c5csc(n5)C(C(C)(O)C(C)O)NC(=O)C5CSC(=N5)C(=CC)NC(=O)C(C(C)O)NC(=O)c5csc(n5)C3(CC2)NC(=O)C(CCC(N)=O)NC(=O)C(=C)NC(=O)C(C)NC(=O)C(C(C)CC)NC2C=Cc3c(C(C)O)cc(nc3C2O)C(=O)OC4C)n1)C(N)=O (centres unmarked),"Proteasome subunit beta type-7, in 20S proteasome (PSMB7, Homo sapiens, UniProt Q99436)","trypsin-like activity, inhibitor",,with: Boc-Leu-Arg-Arg-AMC,baseline: thiostrepton A,fold loss of potency,≥ 11 fold
